Assay results from different studies.
Compare with care: the assays were run in different laboratories. ± marks the error that the study gave.

| SMILES | tested on | assay | test system | conditions | how to read | endpoint | value |
| --- | --- | --- | --- | --- | --- | --- | --- |
| Cc1ncsc1-c1ccc(C(C)NC(=O)C2CC(O)CN2C(=O)C(NC(=O)CCCCCCCCCCN2CCCC(Nc3ncc(Cl)c(Nc4ccccc4S(=O)(=O)C(C)C)n3)C2)C(C)(C)C)cc1 (stereo not drawn) | 22Rv1 | RNA-seq, refers to: TJP3 mRNA |  | concentration not given | relative to: DMSO | log2 fold change | -1.06 |
| COC1CN([C@H]2CC[C@H]([C@@]3(C)Oc4c(Cl)cc(C(=O)NCc5c(SC)cc(C)[nH]c5=O)c(C)c4O3)CC2)C1 |  | RNA-seq, refers to: ACP5 | human, whole blood | dose not given, 24 h | relative to: pretreatment baseline | log2 fold change | 4.7 |
| C[n+]1ccc(/C=N/NC(=O)c2cccc(C(=O)N/N=C/c3cc[n+](C)c4ccccc34)c2)c2ccccc21 | MYC parallel G4 DNA | FRET melting |  | 1 µM, DNA 0.2 µM |  | ΔTm | 5.1 ± 0.1 °C |
| O=C(N/N=C/c1ccccn1)c1cc(-c2ccc(Cl)cc2)nc2ccccc12 | Mus musculus | gene silencing, high-content imaging | LDR reporter GFP cells | retest, mean of two runs |  | EC50 | 10 µM |
| CNS(=O)(=O)Nc1nccc(Cc2c(C)c3ccc(Oc4ncccc4F)cc3oc2=O)c1F | MOLM-13 | cell viability |  | 7 days |  | IC50 | 0.0298 µM |
| O=C(N/N=C/c1ccc2c(ccc[n+]2Cc2ccccc2)c1)C(=O)N/N=C/c1ccc2c(ccc[n+]2Cc2ccccc2)c1 | hp2 hairpin duplex DNA | FRET melting |  | 1 µM, together with: ds26 10 µM |  | ΔTm | 0.9 ± 0.3 °C |
| Nc1ncc(-c2cc(-c3cnn(CC(F)(F)F)c3)ncc2F)nc1C(=O)NC1CNCC(F)C1 (stereo not drawn) | STK16 | KINOMEscan |  | 1 µM | relative to: DMSO control | remaining binding | 84% |
| O=C(N/N=C/c1cc[n+](Cc2ccccc2)c2ccccc12)c1cccc(C(=O)N/N=C/c2cc[n+](Cc3ccccc3)c3ccccc23)n1 | hp2 hairpin duplex DNA | FRET melting |  | 1 µM |  | ΔTm | 2 ± 1.2 °C |
| C=CC(=O)Nc1cccc(Cn2ncc3cnc(Nc4cnn(CCOC)c4)nc32)c1 | INSRR human | binding, KINOMEscan |  | 100 nM | lower = stronger binding | percent of control | 98% |
